Assay results collected from several papers.
± marks the error that the study gave.
B1: MDH1 (Homo sapiens, UniProt P40925); N-terminal acetylation; sequence looked up; chain MSEPIRVLVTGAAGQIAYSLLYSIGNGSVFGKDQPIILVLLDITPMMGVLDGVLMELQDCALPLLKDVIATDKEDVAFKDLDVAILVGSMPRREGMERKDLLKANVKIFKSQGAALDKYAKKSVKVIVVGNPANTNCLTASKSAPSIPKENFSCLTRLDHNRAKAQIALKLGVTANDVKNVIIWGNHSSTQYPDVNHAKVKLQGKEVGVYEALKDDSWLKGEFVTTVQQRGAAVIKARKLSSAMSAAKAICDHVRDIWFGTPEGEFVSMGVISDGNSYGVPDDLLYSFPVVIKNKTWKFVEGLPINDFSREKMDLTAKELTEEKESAFEFLSSA
B2: CRYBB2 (Homo sapiens, UniProt P43320); sequence looked up; chain MASDHQTQAGKPQSLNPKIIIFEQENFQGHSHELNGPCPNLKETGVEKAGSVLVQAGPWVGYEQANCKGEQFVFEKGEYPRWDSWTSSRRTDSLSSLRPIKVDSQEHKIILYENPNFTGKKMEIIDDDVPSFHAHGYQEKVSSVRVQSGTWVGYQYPGYRGLQYLLEKGDYKDSSDFGAPHPQVQSVRRIRDMQWHQRGAFHPSN
B3: ktrB 1-445 (Bacillus subtilis, UniProt O32081); chain MTLQKDKVIKWVRFTPPQVLAIGFFLTIIIGAVLLMLPISTTKPLSWIDALFTAASATTVTGLAVVDTGTQFTVFGQTVIMGLIQIGGLGFMTFAVLIVMILGKKIGLKERMLVQEALNQPTIGGVIGLVKVLFLFSISIELIAALILSIRLVPQYGWSSGLFASLFHAISAFNNAGFSLWPDNLMSYVGDPTVNLVITFLFITGGIGFTVLFDVMKNRRFKTFSLHTKLMLTGTLMLNAIAMLTVFILEYSNPGTLGHLHIVDKLWASYFQAVTPRTAGFNSLDFGSMREGTIVFTLLLMFIGAGSASTASGIKLTTFIVILTSVIAYLRGKKETVIFRRSIKYPIIIKALAVSVTSLFIVFLGIFALTITEQAPFLQIVFETFSAFGTVGLTMGLTPELTTAGKCIIIVIMFIGRIGPLTFVFSFAKTEQSNIRYPDGEVFTG
B4: spo0J K257A (Bacillus subtilis, UniProt P26497); chain MAKGLGKGINALFNQVDLSEETVEEIKIADLRPNPYQPRKHFDDEALAELKESVLQHGILQPLIVRKSLKGYDIVAGERRFRAAKLAGLDTVPAIVRELSEALMREIALLENLQREDLSPLEEAQAYDSLLKHLDLTQEQLAKRLGKSRPHIANHLRLLTLPENIQQLIAEGTLSMGHGRTLLGLKNKNKLEPLVQKVIAEQLNVRQLEQLIQQLNQNVPRETKKKEPVKDAVLKERESYLQNYFGTTVNIKRQKKAGKIEIEFFSNEDLDRILELLSERES
B5: GDF15 mature (UniProt Q99988); sequence looked up; chain ARARNGDHCPLGPGRCCRLHTVRASLEDLGWADWVLSPREVQVTMCIGACPSQFRAANMHAQIKTSLHRLKPDTVPAPCCVPASYNPMVLIQKTDTGVSLQTYDDLLAKDCHCI
B6: BcsB/BcsC TPR1-4 fused to BcsB (Escherichia coli); chain VEAAPTAQQQLLEQVRLGEATHREDLVQQSLYRLELIDPNNPDVVAARFRSLLRQGDIDGAQKQLDRLSQLAPSSNAYKSSRTTMLLSTPDGRQALQQARLQATTGHAEEAVASYNKLFNGAPPEGDIAVEYWSTVAKIPARRGEAINQLKRINADAPGGSGSGSGVQGADAPVVAQNGPSRDVKLTFAQIAPPPGSMVLRGINPNGSIEFGMRSDEVVTKAMLNLEYTPSPSLLPVQSQLKVYLNDELMGVLPVTKEQLGKKTLAQMPINPLFISDFNRVRLEFVGHYQDVCEKPASTTLWLDVGRSSGLDLTYQTLNVKNDLSHFPVPFFDPSDNRTNTLPMVFAGAPDVGLQQASAIVASWFGSRSGWRGQNFPVLYNQLPDRNAIVFATNDKRPDFLRDHPAVKAPVIEMINHPQNPYVKLLVVFGRDDKDLLQAAKGIAQGNILFRGESVVVNEVKPLLPRKPYDAPNWVRTDRPVTFGELKTYEEQLQSSGLEPAAINVSLNLPPDLYLMRSTGIDMDINYRYTMPPVKDSSRMDISLNNQFLQSFNLSSKQEANRLLLRIPVLQGLLDGKTDVSIPALKLGATNQLRFDFEYMNPMPGGSVDNCITFQPVQNHVVIGDDSTIDFSKYYHFIPMPDLRAFANAGFPFSRMADLSQTITVMPKAPNEAQMETLLNTVGFIGAQTGFPAINLTVTDDGSTIQGKDADIMIIGGIPDKLKDDKQIDLLVQATESWVKTPMRQTPFPGIVPDESDRAAETRSTLTSSGAMAAVIGFQSPYNDQRSVIALLADSPRGYEMLNDAVNDSGKRATMFGSVAVIRESGINSLRVGDVYYVGHLPWFERVWYALANHPILLAVLAAISVILLAWVLWRLLRIISRRRLNPDNE
B7: sso0001 1-202 C32A (Sulfolobus solfataricus, UniProt Q97TX9); chain MITEFLLKKKLEEHLSHVKEENTIYVTDLVRAPRRVRYESEYKELAISQVYAPSAILGDILHLGLESVLKGNFNAETEVETLREINVGGKVYKIKGRADAIIRNDNGKSIVIEIKTSRSDKGLPLIHHKMQLQIYLWLFSAEKGILVYITPDRIAEYEINEPLDEATIVRLAEDTIMLQNSPRFNWECKYCIFSVICPAKLT
B8: human MTHFD1L; sequence looked up; chain SSGGGGGGGGGREGLLGQRRPQDGQARSSCSPGGRTPAARDSIVREVIQNSKEVLSLLQEKNPAFKPVLAIIQAGDDNLMQEINQNLAEEAGLNITHICLPPDSSEAEIIDEILKINEDTRVHGLALQISENLFSNKVLNALKPEKDVDGVTDINLGKLVRGDAHECFVSPVAKAVIELLEKSGVNLDGKKILVVGAHGSLEAALQCLFQRKGSMTMSIQWKTRQLQSKLHEADIVVLGSPKPEEIPLTWIQPGTTVLNCSHDFLSGKVGCGSPRIHFGGLIEEDDVILLAAALRIQNMVSSGRRWLREQQHRRWRLHCLKLQPLSPVPSDIEISRGQTPKAVDVLAKEIGLLADEIEIYGKSKAKVRLSVLERLKDQADGKYVLVAGITPTPLGEGKSTVTIGLVQALTAHLNVNSFACLRQPSQGPTFGVKGGAAGGGYAQVIPMEEFNLHLTGDIHAITAANNLLAAAIDTRILHENTQTDKALYNRLVPLVNGVREFSEIQLARLKKLGINKTDPSTLTEEEVSKFARLDIDPSTITWQRVLDTNDRFLRKITIGQGNTEKGHYRQAQFDIAVASEIMAVLALTDSLADMKARLGRMVVASDKSGQPVTADDLGVTGALTVLMKDAIKPNLMQTLEGTPVFVHAGPFANIAHGNSSVLADKIALKLVGEEGFVVTEAGFGADIGMEKFFNIKCRASGLVPNVVVLVATVRALKMHGGGPSVTAGVPLKKEYTEENIQLVADGCCNLQKQIQITQLFGVPVVVALNVFKTDTRAEIDLVCELAKRAGAFDAVPCYHWSVGGKGSVDLARAVREAASKRSRFQFLYDVQVPIVDKIRTIAQAVYGAKDIELSPEAQAKIDRYTQQGFGNLPICMAKTHLSLSHQPDKKGVPRDFILPISDVRASIGAGFIYPLVGTMSTMPGLPTRPCFYDIDLDTETEQVKGLF
B9: ABCG25 1-662 (Arabidopsis thaliana, UniProt Q84TH5); chain MSAFDGVENQMNGPDSSPRLSQDPREPRSLLSSSCFPITLKFVDVCYRVKIHGMSNDSCNIKKLLGLKQKPSDETRSTEERTILSGVTGMISPGEFMAVLGPSGSGKSTLLNAVAGRLHGSNLTGKILINDGKITKQTLKRTGFVAQDDLLYPHLTVRETLVFVALLRLPRSLTRDVKLRAAESVISELGLTKCENTVVGNTFIRGISGGERKRVSIAHELLINPSLLVLDEPTSGLDATAALRLVQTLAGLAHGKGKTVVTSIHQPSSRVFQMFDTVLLLSEGKCLFVGKGRDAMAYFESVGFSPAFPMNPADFLLDLANGVCQTDGVTEREKPNVRQTLVTAYDTLLAPQVKTCIEVSHFPQDNARFVKTRVNGGGITTCIATWFSQLCILLHRLLKERRHESFDLLRIFQVVAASILCGLMWWHSDYRDVHDRLGLLFFISIFWGVLPSFNAVFTFPQERAIFTRERASGMYTLSSYFMAHVLGSLSMELVLPASFLTFTYWMVYLRPGIVPFLLTLSVLLLYVLASQGLGLALGAAIMDAKKASTIVTVTMLAFVLTGGYYVNKVPSGMVWMKYVSTTFYCYRLLVAIQYGSGEEILRMLGCDSKGKQGASAATSAGCRFVEEEVIGDVGMWTSVGVLFLMFFGYRVLAYLALRRIKH
B10: phage phi29 gene 12 product D1*-D2-D3 89-691 A535V/D457E/G449V/D372A/Q181E/K166R (bacteriophage phi29, UniProt P20345); N-terminal His6; sequence looked up; chain FADLVIQVIDELKQFGVSVKTYGAKGDGVTDDIRAFEKAIESGFPVYVPYGTFMVSRGIKLPSNTVLTGAGKRNAVIRFMDSVGRGESLMYNENVTTGNENIFLSSFTLDGNNKRLGQGISGIGGSRESNLSIRACHNVYIRDIEAVDCTLHGIDITCGGLDYPYLGDGTTAPNPSENIWIENCEATGFGDDGITTHHSQYINILNCYSHDPRLTANCNGFEIDDGSRHVVLSNNRSKGCYGGIEIKAHGDAPAAYNISINGHMSVEDVRSYNFRHIGHHAATAPQSVSAKNIVASNLVSIRPNNKRGFQDNATPRVLAVSAYYGVVINGLTGYTDDPNLLTETVVSVQFRARNCSLNGVVLTGFSNSENGIYVIGGSRGGDAVNISNVTLNNSGRYGVSIGSGIENVSITNISGIGDGINSPVALVSTINSNPEISGLSSIGYPTVARVAGTDYNDGLTLFNGAFRASTTSSGKIHSEGFIMGSTSGCEASVSKSGVLTSSSSKTSSERSLIAGSSTSEAKGTYNTILGSLGAVADEQFAALISASQSRASGNHNLILSSYGINTTGSYKVNGGFEKINWELDSLNGRIKARDTVTGGNTWS
B11: lacI 1-360 D149A (Escherichia coli, UniProt P03023); chain MKPVTLYDVAEYAGVSYQTVSRVVNQASHVSAKTREKVEAAMAELNYIPNRVAQQLAGKQSLLIGVATSSLALHAPSQIVAAIKSRADQLGASVVVSMVERSGVEACKAAVHNLLAQRVSGLIINYPLDDQDAIAVEAACTNVPALFLAVSDQTPINSIIFSHEDGTRLGVEHLVALGHQQIALLAGPLSSVSARLRLAGWHKYLTRNQIQPIAEREGDWSAMSGFQQTMQMLNEGIVPTAMLVANDQMALGAMRAITESGLRVGADISVVGYDDTEDSSCYIPPLTTIKQDFRLLGQTSVDRLLQLSQGQAVKGNQLLPVSLVKRKTTLAPNTQTASPRALADSLMQLARQVSRLESGQ
B12: mutL (Bacillus subtilis, UniProt P49850); sequence looked up; chain MAKVIQLSDELSNKIAAGEVVERPASVVKELVENAIDADSTVIEIDIEEAGLASIRVLDNGEGMENEDCKRAFRRHATSKIKDENDLFRVRTLGFRGEALPSIASVSHLEITTSTGEGAGTKLVLQGGNIISESRSSSRKGTEIVVSNLFFNTPARLKYMKTVHTELGNITDVVNRIALAHPEVSIRLRHHGKNLLQTNGNGDVRHVLAAIYGTAVAKKMLPLHVSSLDFEVKGYIALPEITRASRNYMSSVVNGRYIKNFPLVKAVHEGYHTLLPIGRHPITFIEITMDPILVDVNVHPSKLEVRLSKETELHDLIRDGIKDVFKQQQLIPSAQVPKKSAPAIKNEQQFITFDEKPPEKKVPEKSTAPSYSPMKLSSVVKEPVDAEEKLPPLQFDAPPIVDQEQTLEVSDVSAEQPETFEQECHEEQPQPASDRVPIMYPIGQMHGTYILAQNENGLYIIDQHAAQERIKYEYFREKVGEVEPEVQEMIVPLTFHYSTNEALIIEQHKQELESVGVFLESFGSNSYIVRCHPAWFPKGEEAELIEEIIQQVLDSKNIDIKKLREEAAIMMSCKGSIKANRHLRNDEIKALLDDLRSTSDPFTCPHGRPIIIHHSTYEMEKMFKRVM
Sequence of UniProt P13393 (whole entry, looked up): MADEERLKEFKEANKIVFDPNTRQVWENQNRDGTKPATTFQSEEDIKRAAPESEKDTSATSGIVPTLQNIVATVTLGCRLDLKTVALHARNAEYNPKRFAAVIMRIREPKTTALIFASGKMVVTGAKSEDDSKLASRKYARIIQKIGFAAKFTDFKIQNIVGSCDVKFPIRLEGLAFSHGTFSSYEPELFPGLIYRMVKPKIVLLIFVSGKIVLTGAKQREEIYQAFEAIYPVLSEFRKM
Sequence of UniProt P26368 (whole entry, looked up): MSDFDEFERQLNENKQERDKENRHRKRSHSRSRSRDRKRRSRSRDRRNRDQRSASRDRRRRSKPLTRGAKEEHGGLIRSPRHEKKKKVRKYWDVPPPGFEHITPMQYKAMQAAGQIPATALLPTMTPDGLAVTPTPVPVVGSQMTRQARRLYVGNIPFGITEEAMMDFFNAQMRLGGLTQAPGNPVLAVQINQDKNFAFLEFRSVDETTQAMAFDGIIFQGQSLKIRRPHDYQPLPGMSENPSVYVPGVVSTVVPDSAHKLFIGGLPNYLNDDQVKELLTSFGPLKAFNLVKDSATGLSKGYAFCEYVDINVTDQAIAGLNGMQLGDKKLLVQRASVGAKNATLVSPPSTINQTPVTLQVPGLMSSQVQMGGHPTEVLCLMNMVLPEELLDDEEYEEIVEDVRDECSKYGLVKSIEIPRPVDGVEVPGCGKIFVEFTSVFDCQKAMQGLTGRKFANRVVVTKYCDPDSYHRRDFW
Sequence of UniProt O74876 (whole entry, looked up): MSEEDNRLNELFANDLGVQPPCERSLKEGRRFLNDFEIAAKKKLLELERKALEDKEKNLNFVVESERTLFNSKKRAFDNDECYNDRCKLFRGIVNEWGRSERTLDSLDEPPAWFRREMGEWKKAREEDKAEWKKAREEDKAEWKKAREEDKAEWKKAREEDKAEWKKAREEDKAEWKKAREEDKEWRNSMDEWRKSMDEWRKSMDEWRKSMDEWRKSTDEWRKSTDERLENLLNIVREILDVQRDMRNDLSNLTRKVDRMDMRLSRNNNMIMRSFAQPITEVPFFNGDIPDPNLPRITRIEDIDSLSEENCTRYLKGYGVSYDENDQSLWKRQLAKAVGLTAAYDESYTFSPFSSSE
Sequence of UniProt P00330 (whole entry, looked up): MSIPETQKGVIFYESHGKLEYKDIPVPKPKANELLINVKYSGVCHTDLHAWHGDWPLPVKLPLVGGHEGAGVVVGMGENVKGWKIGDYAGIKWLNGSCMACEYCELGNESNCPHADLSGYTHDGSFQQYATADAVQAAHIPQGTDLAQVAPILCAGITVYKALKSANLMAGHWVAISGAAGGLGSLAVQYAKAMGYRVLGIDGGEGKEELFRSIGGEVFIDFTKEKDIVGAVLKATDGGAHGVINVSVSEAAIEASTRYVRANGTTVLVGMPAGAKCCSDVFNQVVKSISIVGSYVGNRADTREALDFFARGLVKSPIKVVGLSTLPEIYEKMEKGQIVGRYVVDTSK
Sequence of UniProt P22770 (whole entry, looked up): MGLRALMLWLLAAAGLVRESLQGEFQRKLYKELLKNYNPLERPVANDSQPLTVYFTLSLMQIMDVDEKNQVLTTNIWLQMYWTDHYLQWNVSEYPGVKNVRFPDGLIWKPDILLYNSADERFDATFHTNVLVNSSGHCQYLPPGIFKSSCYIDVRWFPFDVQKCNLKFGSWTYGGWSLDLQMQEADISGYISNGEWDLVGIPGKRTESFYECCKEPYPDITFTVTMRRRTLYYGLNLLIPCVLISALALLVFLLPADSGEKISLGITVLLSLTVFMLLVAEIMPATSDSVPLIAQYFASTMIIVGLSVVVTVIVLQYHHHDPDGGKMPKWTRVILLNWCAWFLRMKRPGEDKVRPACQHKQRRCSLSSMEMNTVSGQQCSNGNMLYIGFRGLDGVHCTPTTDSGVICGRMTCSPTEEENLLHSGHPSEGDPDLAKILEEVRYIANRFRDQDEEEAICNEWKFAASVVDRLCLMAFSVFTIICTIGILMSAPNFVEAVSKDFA

Substance	tested on	assay	system	conditions	scale	endpoint	result
MVRVITFKAEEELLVKLDLFALNSRMSRSEIIRMAIEKYLEEAAGGIRTRDRRLSRQ (SiRe_1157 (Saccharolobus islandicus, UniProt F0NEU4); sequence looked up)	itself	SEC	–	–	–	subunits per oligomer	2
B1 (MDH1)	itself	native MS	–	–	–	subunits per oligomer	2
B2 (CRYBB2)	itself	native MS	–	11.5 µM, pH 7.5	–	subunits per oligomer	4
B3 (ktrB 1-445)	itself	crystal structure	–	–	–	subunits per oligomer	2
B4 (spo0J K257A)	itself	SEC-MALS	–	–	–	subunits per oligomer	2
B5 (GDF15 mature)	itself	AUC	–	–	–	subunits per oligomer	2
B6 (BcsB/BcsC TPR1-4 fused to BcsB)	itself	cryo-EM	–	–	–	subunits per oligomer	5
B7 (sso0001 1-202 C32A)	itself	SEC	–	–	–	subunits per oligomer	5 protomers
UAUUUCUUU (ssRNA)	U2AF2 148-342 (Homo sapiens, UniProt P26368)	sequencing of bound RNA	RNA	motif only	–	Kd	710 nM
B8 (human MTHFD1L)	PP6C (human)	co-immunoprecipitation, IP-MS	CYB5R4 knockout cells	concentration not given	baseline: CYB5R4 knockout over parental	log2 fold change	-0.43
GAATTCCTATATATTAATGTGGAGCTCCGTTCGTCTCAAGTCAATCGGTCC (dsDNA; 5'-amino-C6 primer)	SPT15 full length assumed (Saccharomyces cerevisiae, UniProt P13393)	array	double-stranded DNA, one strand shown	TBP alone	–	Kd	13.4 ± 0.73 nM
MKGMSKMPQFLLVWPREVLDLVRKVAEENGRSVNSEIYQRVMESFKKEGRIGA (Arc repressor 1-53 N11L/R13V (P22 phage, UniProt P03050))	itself	SEC	–	–	–	subunits per oligomer	2
CHRNA7 (Gallus gallus, UniProt P22770)	itself	sucrose gradient sedimentation	–	–	–	subunits per oligomer	5
protein (Schizosaccharomyces pombe, UniProt O74876)	itself	mass photometry	–	–	–	subunits per oligomer	4
B9 (ABCG25 1-662)	itself	cryo-EM	–	–	–	subunits per oligomer	2
B10	itself	crystal structure	–	–	–	subunits per oligomer	3
B11 (lacI 1-360 D149A)	itself	SEC	–	–	–	subunits per oligomer	4
ADH1 mature, N-terminal acetylation (UniProt P00330)	itself	native MS	–	–	–	subunits per oligomer	4
B12 (mutL)	itself	SEC	–	–	–	subunits per oligomer	2

Excerpt of the above:
Substance	tested on	assay	system	conditions	scale	endpoint	result
B1 (MDH1)	itself	native MS	–	–	–	subunits per oligomer	2
